# Experimental data pooled from the literature.
# Several values in a cell are separate wells, animals, samples, runs or records. ± marks the error that the study gave.
Compound,test,system,setting,scale,quantity,value
CC(C)(C)[Si](C)(C)Oc1ccc(COC(=O)NNc2ccccc2)cc1,,PBS,"23 h, 37 °C",reference: initial amount,remaining fraction,0.92 and 0.86 and 0.87
CC[C@H](C)[C@@H](C(=O)N[C@@H](CC(C)C)C(=O)N[C@@H](CO)C(=O)N[C@@H](CO)C(=O)N[C@H](C(=O)N[C@@H](CCC(=O)O)C(=O)N[C@H](C(=O)NCC(=O)N[C@@H](CO)C(=O)N[C@@H](CO)C(=O)N[C@H](C(=O)N1CCC[C@H]1C(N)=O)[C@@H](C)O)C(C)C)[C@@H](C)O)N(C)C(=O)[C@H](C)NC(=O)CN(C)C(=O)[C@H](Cc1ccccc1)NC(=O)[C@H](CO)NC(=O)[C@H](CO)NC(=O)[C@H](CCCNC(=N)N)NC(=O)[C@H](CCC(N)=O)NC(=O)[C@H](CC(C)C)NC(=O)[C@H](Cc1ccccc1)NC(=O)[C@H](Cc1c[nH]cn1)NC(=O)[C@H](C)NC(=O)[C@H](CC(C)C)NC(=O)[C@H](CCCNC(=N)N)NC(=O)[C@H](CCC(=O)O)NC(=O)[C@@H](NC(=O)[C@H](C)NC(=O)[C@@H]1CSSC[C@H](NC(=O)[C@H](CCCNC(=N)N)NC(=O)CC[C@H](NC(=O)CCCCCCCCCCCCCCCCCCC(=O)O)C(=O)O)C(=O)NCC(=O)N[C@@H]([C@@H](C)O)C(=O)N[C@@H](C)C(=O)N[C@@H]([C@@H](C)O)C(=O)N1)[C@@H](C)O,RP-HPLC,water,"7 days, pH 6.0, 40 °C",,remaining main peak,88 area %
N=C(N)NCCC[C@@H]1NC(=O)[C@H](CCCNC(=N)N)NC(=O)[C@@H](C(c2ccccc2)c2ccccc2)NC(=O)[C@H](Cc2c[nH]c3ccccc23)NC(=O)[C@@H](C(c2ccccc2)c2ccccc2)NC(=O)[C@@H](CCCNC(=N)N)NC(=O)[C@@H](CCCNC(=N)N)NC1=O,LC-MS,human plasma,30 min,,remaining peptide,~83.1%
CCN(CC)CC#CCNc1ccnc2cc(Cl)ccc12,,monkey hepatocytes,"10 µM, 30 min",reference: time zero,remaining parent,39.3%
[2H]C([2H])([18F])Oc1cc(C(=O)OCC2CCN(CCCC)CC2)ccc1N,,phosphate buffer,"up to 2.5 h, room temperature",,remaining radioligand,99.6 ± 0.04%
CC(C)(C)[C@H](NC(=O)c1ccc(Oc2ccc(C(=O)N[C@H]3CCCC[C@@H]3O)cc2)cc1)C(=O)NCCN1CCCC1,,mouse liver microsomes,"1 µM, 20 min, pH 7.4",,remaining compound,87.3%
CC[C@H](C)[C@@H](C(=O)N[C@@H](CC(C)C)C(=O)N[C@@H](CO)C(=O)N[C@@H](CO)C(=O)N[C@H](C(=O)N[C@@H](CCC(=O)O)C(=O)N[C@H](C(=O)NCC(=O)N[C@@H](CO)C(=O)N[C@@H](CCCN)C(=O)N[C@H](C(=O)N1C[C@H](O)C[C@H]1C(N)=O)[C@@H](C)O)C(C)C)[C@@H](C)O)N(C)C(=O)[C@H](C)NC(=O)CN(C)C(=O)[C@H](Cc1ccccc1)NC(=O)[C@H](CO)NC(=O)[C@H](CO)NC(=O)[C@H](CCCNC(=N)N)NC(=O)[C@@H](NC(=O)[C@H](CC(C)C)NC(=O)[C@H](Cc1ccccc1)NC(=O)[C@H](Cc1c[nH]cn1)NC(=O)[C@H](C)NC(=O)[C@H](CC(C)C)NC(=O)[C@H](CCCNC(=N)N)NC(=O)[C@H](CCC(=O)O)NC(=O)[C@@H](NC(=O)[C@H](C)NC(=O)[C@@H]1CSSC[C@H](NC(=O)[C@H](CCCNC(=N)N)NC(=O)CC[C@H](NC(=O)CCCCCCCCCCCCCCCCCCC(=O)O)C(=O)O)C(=O)NCC(=O)N[C@@H]([C@@H](C)O)C(=O)N[C@@H](C)C(=O)N[C@@H]([C@@H](C)O)C(=O)N1)[C@@H](C)O)[C@@H](C)O,RP-HPLC,water,"7 days, pH 7.5, 40 °C",,remaining main peak,90 area %
Cc1ccc(C(C)C)cc1.O=C(N=P(c1ccccc1)(c1ccccc1)c1ccccc1)c1ccccn1.[Cl-].[Cl-].[Ru+2],,DMSO-d6,3 weeks,,remaining intact compound,> 99%
CSCC[C@@H](N)C(=O)N[C@@H](CC(C)C)C(=O)N[C@@H](CCCNC(=N)N)C(=O)N[C@@H](Cc1c[nH]c2ccccc12)C(=O)N[C@@H](CO)C(=O)N[C@@H](CCCNC(=N)N)C(=O)N[C@@H](CCCCN)C(=O)N[C@@H](CCSC)C(=O)N1CCC[C@H]1C(=O)N[C@@H](CS)C(=O)N[C@H](C(=O)N[C@@H](CO)C(=O)O)C(C)C,"12G5 competition, SUP-T1 cells",human plasma,"concentration not given, 2 h",,remaining activity,68 ± 8%
[2H]C1([2H])CC[C@@H](C[C@@H](C#N)NC(=O)[C@@H]2[C@@H]3[C@H](CN2C(=O)[C@@H](NC(=O)C(F)F)C(C)(C)C)C3(C)C)C(=O)N1,,human liver microsomes,60 min,,remaining compound,101%
CC[C@H](C)[C@@H](C(=O)N[C@@H](CC(C)C)C(=O)N[C@@H](CO)C(=O)N[C@@H](CO)C(=O)N[C@H](C(=O)N[C@@H](CCC(=O)O)C(=O)N[C@H](C(=O)NCC(=O)N[C@@H](CO)C(=O)N[C@@H](CC(N)=O)C(=O)N[C@H](C(=O)N1C[C@H](O)C[C@H]1C(N)=O)[C@@H](C)O)C(C)C)[C@@H](C)O)N(C)C(=O)[C@H](C)NC(=O)CN(C)C(=O)[C@H](Cc1ccccc1)NC(=O)[C@H](CO)NC(=O)[C@H](CO)NC(=O)[C@H](CCCNC(=N)N)NC(=O)[C@H](CCC(N)=O)NC(=O)[C@H](CC(C)C)NC(=O)[C@H](Cc1ccccc1)NC(=O)[C@H](Cc1c[nH]cn1)NC(=O)[C@H](C)NC(=O)[C@H](CC(C)C)NC(=O)[C@H](CCCNC(=N)N)NC(=O)[C@H](CCC(=O)O)NC(=O)[C@@H](NC(=O)[C@H](C)NC(=O)[C@@H]1CSSC[C@H](NC(=O)[C@H](CCCNC(=N)N)NC(=O)CC[C@H](NC(=O)CCCCCCCCCCCCCCCCCCC(=O)O)C(=O)O)C(=O)N[C@@H](CCC(N)=O)C(=O)N[C@@H]([C@@H](C)O)C(=O)N[C@@H](C)C(=O)N[C@@H]([C@@H](C)O)C(=O)N1)[C@@H](C)O,RP-HPLC,water,"7 days, pH 7.5, 40 °C",,remaining main peak,96 area %
O=C(NC1CCC(F)(F)CC1)C(c1cncnc1)N(C(=O)C(F)Cl)c1ccc(-c2cncs2)cc1 (centres unmarked),,mouse liver microsomes,"concentration not given, 0.08333 h, pH 7.4",,remaining compound,84.5%
C=CC(=O)Nc1cc(Nc2nccc(-c3cn(C)c4ccccc34)n2)c(OC)cc1N(C)CCNC,storage stability,human plasma,"270 ng/mL, 24 h, on ice, HQC level",,remaining amount,89.1%
CN(Cc1cc(C2CC2)on1)C(=O)c1cccc(-c2ccc(F)cc2)c1,,human liver microsomes,"2 µM, 30 min, pH 7.5, without ABT",,remaining compound,72.9%
O=Cc1ccc(-c2cn([C@@H]3O[C@H](COP(=O)(O)OP(=O)(O)O[C@H]4O[C@H](CO)[C@H](O)[C@H](O)[C@H]4O)[C@@H](O)[C@H]3O)c(=O)[nH]c2=O)s1,HPLC,"MOPS buffer, no enzyme","24 h, pH 7.2, 37 °C",,remaining intact,> 80%
CC[C@H](C)[C@@H](C(=O)N[C@@H](CC(C)C)C(=O)N[C@@H](CO)C(=O)N[C@@H](CO)C(=O)N[C@H](C(=O)N[C@@H](CCC(=O)O)C(=O)N[C@H](C(=O)NCC(=O)N[C@@H](CO)C(=O)N[C@@H](CC(N)=O)C(=O)N[C@H](C(=O)N1C[C@H](O)C[C@H]1C(N)=O)[C@@H](C)O)C(C)C)[C@@H](C)O)N(C)C(=O)[C@H](C)NC(=O)CN(C)C(=O)[C@H](Cc1ccccc1)NC(=O)[C@H](CO)NC(=O)[C@H](CO)NC(=O)[C@H](CCCNC(=N)N)NC(=O)[C@H](CC(N)=O)NC(=O)[C@H](CC(C)C)NC(=O)[C@H](Cc1ccccc1)NC(=O)[C@H](Cc1c[nH]cn1)NC(=O)[C@H](C)NC(=O)[C@H](CC(C)C)NC(=O)[C@H](CCCNC(=N)N)NC(=O)[C@H](CCC(=O)O)NC(=O)[C@@H](NC(=O)[C@H](C)NC(=O)[C@@H]1CSSC[C@H](NC(=O)[C@H](CCCNC(=N)N)NC(=O)CC[C@H](NC(=O)CCCCCCCCCCCCCCCCCCC(=O)O)C(=O)O)C(=O)NCC(=O)N[C@@H]([C@@H](C)O)C(=O)N[C@@H](C)C(=O)N[C@@H]([C@@H](C)O)C(=O)N1)[C@@H](C)O,RP-HPLC,water,"7 days, pH 6.0, 40 °C",,remaining main peak,80 area %
C[C@](C(=O)NC1CCC(F)(F)CC1)(c1cncnc1)N(C(=O)[C@H](F)Cl)c1ccc(OC(F)(F)F)cc1,,mouse liver microsomes,"concentration not given, 1 h, pH 7.4",,remaining compound,11.8%

# Some of these lines once more:
Compound,test,system,setting,scale,quantity,value
CN(Cc1cc(C2CC2)on1)C(=O)c1cccc(-c2ccc(F)cc2)c1,,human liver microsomes,"2 µM, 30 min, pH 7.5, without ABT",,remaining compound,72.9%
